Published values gathered from unrelated publications.
Every numbered part comes from another study and shows a few of its results, in no order.
Chain of UniProt Q16659 (whole entry, looked up): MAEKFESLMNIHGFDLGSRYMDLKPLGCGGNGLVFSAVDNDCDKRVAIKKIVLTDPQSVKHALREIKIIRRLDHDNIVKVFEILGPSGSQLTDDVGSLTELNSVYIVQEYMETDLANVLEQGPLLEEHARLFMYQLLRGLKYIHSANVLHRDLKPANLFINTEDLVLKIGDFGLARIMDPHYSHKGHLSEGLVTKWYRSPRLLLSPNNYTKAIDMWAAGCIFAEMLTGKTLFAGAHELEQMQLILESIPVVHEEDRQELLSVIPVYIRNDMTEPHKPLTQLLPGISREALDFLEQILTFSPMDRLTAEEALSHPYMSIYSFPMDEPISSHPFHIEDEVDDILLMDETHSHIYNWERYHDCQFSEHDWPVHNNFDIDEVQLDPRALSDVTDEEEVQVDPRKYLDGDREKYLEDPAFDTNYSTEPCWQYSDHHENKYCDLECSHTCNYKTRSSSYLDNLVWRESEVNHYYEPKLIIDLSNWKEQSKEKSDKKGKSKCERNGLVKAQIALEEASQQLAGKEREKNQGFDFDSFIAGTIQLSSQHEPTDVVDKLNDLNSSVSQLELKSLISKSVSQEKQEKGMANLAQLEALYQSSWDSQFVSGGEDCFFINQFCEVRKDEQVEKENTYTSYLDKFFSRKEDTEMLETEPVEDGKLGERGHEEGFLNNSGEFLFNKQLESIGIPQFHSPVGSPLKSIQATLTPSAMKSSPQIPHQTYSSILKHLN
Chain of UniProt Q16566 (whole entry, looked up): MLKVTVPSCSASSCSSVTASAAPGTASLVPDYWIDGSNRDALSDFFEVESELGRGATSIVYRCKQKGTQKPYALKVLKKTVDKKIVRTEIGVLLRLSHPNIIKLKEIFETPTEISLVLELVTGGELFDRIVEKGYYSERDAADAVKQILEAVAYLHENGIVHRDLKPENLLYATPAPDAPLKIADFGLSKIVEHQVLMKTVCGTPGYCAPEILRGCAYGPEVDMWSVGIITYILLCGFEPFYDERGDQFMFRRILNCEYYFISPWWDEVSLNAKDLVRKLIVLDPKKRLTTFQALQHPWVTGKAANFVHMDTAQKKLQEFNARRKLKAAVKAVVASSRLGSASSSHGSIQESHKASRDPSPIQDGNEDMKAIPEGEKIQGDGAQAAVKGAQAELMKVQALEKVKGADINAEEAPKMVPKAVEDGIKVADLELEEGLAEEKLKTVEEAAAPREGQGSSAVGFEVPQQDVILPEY
Chain of UniProt Q8IVH8 (whole entry, looked up): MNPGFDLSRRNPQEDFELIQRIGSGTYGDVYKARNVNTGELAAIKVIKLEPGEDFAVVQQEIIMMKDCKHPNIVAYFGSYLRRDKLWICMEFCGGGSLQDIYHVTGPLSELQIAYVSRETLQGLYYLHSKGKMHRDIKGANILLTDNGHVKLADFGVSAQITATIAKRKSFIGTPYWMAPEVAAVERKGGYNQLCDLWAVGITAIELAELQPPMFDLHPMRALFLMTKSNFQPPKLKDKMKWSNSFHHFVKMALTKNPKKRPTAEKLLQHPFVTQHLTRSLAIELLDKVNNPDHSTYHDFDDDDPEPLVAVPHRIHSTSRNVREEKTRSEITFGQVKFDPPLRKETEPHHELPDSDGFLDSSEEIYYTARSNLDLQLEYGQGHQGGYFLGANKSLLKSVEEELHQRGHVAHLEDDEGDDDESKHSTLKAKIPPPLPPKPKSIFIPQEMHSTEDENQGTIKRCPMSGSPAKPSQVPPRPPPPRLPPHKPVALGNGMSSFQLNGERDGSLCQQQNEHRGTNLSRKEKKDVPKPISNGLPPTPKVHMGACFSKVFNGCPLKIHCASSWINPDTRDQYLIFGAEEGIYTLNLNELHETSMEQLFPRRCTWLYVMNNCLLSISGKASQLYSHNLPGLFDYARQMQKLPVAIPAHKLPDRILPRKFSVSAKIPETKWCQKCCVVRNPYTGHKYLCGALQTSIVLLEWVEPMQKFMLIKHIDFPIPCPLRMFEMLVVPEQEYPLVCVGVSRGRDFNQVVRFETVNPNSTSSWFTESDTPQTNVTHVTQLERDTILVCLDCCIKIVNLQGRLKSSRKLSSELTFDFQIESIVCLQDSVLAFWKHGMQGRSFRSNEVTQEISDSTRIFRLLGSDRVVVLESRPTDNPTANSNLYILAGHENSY
Chain of UniProt Q9UIK4 (whole entry, looked up): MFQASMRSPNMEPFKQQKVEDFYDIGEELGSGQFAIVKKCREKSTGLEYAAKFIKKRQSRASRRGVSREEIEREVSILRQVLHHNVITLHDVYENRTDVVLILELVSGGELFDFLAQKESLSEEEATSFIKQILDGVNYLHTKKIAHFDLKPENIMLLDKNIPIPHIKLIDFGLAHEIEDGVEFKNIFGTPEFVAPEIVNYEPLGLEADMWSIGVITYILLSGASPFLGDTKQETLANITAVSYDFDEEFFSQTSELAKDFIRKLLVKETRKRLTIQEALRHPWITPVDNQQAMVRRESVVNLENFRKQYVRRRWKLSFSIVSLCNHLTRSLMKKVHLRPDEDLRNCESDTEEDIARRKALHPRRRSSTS
Chain of UniProt Q9Y5S2 (whole entry, looked up): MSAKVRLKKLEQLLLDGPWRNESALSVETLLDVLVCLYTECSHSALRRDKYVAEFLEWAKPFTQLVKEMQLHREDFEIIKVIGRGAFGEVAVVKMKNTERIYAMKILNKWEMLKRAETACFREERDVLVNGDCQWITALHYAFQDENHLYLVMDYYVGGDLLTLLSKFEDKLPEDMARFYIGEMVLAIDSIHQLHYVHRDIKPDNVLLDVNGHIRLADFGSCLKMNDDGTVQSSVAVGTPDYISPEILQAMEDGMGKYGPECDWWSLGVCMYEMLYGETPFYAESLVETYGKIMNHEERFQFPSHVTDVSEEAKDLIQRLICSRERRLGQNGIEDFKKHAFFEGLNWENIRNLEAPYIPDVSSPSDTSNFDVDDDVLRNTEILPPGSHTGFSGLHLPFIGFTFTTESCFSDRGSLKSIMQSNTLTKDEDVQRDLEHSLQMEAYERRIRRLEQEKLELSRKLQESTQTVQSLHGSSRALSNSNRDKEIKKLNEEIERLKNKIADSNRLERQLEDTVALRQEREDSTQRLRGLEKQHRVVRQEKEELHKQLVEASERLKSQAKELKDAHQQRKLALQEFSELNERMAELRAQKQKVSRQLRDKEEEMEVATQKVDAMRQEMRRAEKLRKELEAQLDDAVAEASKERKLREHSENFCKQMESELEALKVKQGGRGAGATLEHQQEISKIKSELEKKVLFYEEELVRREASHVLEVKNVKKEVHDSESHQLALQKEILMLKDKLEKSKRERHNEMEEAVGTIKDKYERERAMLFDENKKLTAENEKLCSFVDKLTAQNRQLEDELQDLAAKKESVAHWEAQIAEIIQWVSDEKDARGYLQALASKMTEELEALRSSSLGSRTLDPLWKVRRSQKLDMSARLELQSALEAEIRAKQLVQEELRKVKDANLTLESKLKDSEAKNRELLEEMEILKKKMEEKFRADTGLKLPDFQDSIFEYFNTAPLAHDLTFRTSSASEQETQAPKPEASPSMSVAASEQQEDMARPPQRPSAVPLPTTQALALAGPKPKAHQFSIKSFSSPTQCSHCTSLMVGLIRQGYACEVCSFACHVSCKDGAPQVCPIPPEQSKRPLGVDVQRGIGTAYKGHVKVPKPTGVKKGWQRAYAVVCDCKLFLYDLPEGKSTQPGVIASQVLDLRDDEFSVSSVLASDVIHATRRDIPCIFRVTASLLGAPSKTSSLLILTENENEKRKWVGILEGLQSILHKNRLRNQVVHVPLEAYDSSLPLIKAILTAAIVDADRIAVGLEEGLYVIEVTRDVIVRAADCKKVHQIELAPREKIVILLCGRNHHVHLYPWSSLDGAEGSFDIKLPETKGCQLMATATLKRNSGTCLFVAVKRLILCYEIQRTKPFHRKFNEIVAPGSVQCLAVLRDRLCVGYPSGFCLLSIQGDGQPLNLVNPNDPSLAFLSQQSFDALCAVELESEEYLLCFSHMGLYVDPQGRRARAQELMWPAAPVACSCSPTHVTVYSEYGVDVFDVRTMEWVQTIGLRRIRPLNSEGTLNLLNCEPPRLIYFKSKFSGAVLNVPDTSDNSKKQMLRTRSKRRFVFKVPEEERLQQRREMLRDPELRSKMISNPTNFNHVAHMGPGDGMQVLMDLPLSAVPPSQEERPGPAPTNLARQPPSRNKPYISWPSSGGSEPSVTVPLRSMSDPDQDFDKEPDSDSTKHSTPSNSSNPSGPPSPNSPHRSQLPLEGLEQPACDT
Chain of UniProt P49761 (whole entry, looked up): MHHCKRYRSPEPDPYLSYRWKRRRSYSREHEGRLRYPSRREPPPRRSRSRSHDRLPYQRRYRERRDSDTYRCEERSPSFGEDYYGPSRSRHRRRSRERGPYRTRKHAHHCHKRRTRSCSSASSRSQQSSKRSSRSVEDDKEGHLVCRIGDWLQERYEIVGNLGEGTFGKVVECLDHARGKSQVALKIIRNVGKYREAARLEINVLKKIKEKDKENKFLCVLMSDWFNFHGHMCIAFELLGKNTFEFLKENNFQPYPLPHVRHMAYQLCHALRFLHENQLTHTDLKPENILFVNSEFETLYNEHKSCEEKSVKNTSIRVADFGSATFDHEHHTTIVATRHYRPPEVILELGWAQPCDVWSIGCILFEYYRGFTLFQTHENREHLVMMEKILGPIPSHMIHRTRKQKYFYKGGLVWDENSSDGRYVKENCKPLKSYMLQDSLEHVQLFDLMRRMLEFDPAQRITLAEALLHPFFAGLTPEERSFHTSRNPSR
Chain of UniProt Q16539 (whole entry, looked up): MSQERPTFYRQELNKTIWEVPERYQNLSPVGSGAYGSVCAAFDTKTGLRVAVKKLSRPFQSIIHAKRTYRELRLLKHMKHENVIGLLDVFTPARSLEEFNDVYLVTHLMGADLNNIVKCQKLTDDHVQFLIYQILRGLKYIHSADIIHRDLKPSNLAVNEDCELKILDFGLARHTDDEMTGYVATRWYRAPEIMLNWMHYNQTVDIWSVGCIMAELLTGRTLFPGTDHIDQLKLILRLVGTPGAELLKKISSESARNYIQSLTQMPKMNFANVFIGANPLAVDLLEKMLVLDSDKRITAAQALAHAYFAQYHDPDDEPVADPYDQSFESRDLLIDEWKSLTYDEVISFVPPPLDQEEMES

Series 1
Structure (SMILES): Ic1cccc(CSc2nnc(-c3ccncc3)o2)c1
Observed: enzyme activity
Action: inhibitor
Tested at: 0.5 µM
Baseline: control
Measurement: remaining activity
target = CDC42BPB (Homo sapiens, UniProt Q9Y5S2); value = 96.6%
target = CAMK4 (Homo sapiens, UniProt Q16566); value = 91.6%
target = MAP2K1 (Homo sapiens, UniProt Q02750); value = 95.4%
target = PNCK (Homo sapiens, UniProt Q6P2M8); value = 101%
target = KDR (Homo sapiens, UniProt P35968); value = 78.1%
target = NEK3 (Homo sapiens, UniProt P51956); value = 86.9%
target = PAK3 (Homo sapiens, UniProt O75914); value = 92.9%
target = Cyclin-dependent kinase 9, with cyclin K (CDK9, Homo sapiens, UniProt P50750); value = 105%
target = TXK (Homo sapiens, UniProt P42681); value = 96.8%
target = CLK4 (Homo sapiens, UniProt Q9HAZ1); value = 90%
target = CLK3 (Homo sapiens, UniProt P49761); value = 76.3%
target = MAPK14 (Homo sapiens, UniProt Q16539); value = 99.3%

Series 2
Compound: CCc1ccccc1C(=O)Nc1n[nH]c2c(C)c(F)c(C3C(C#N)=C(C)N(C)C(C)=C3C#N)cc12
Tested at: 1 µM
Measurement: remaining binding
target = PRPF4B (Homo sapiens, UniProt Q13523); observed = cell-free assay; method = competition with immobilised ligand; value = 72%
target = MAP4K3 (Homo sapiens, UniProt Q8IVH8); observed = cell-free assay; method = competition with immobilised ligand; value = 100%
target = Tyrosine-protein kinase ABL1, phosphorylated (ABL1, Homo sapiens, UniProt P00519, F317I); observed = binding; value = 100%
target = MAPK4 (Homo sapiens, UniProt P31152); observed = cell-free assay; method = competition with immobilised ligand; value = 96%
target = MAPK6 (Homo sapiens, UniProt Q16659); observed = cell-free assay; method = competition with immobilised ligand; value = 100%
target = DAPK2 (Homo sapiens, UniProt Q9UIK4); observed = cell-free assay; method = competition with immobilised ligand; value = 63%
target = SGK1 (Homo sapiens, UniProt O00141); observed = cell-free assay; method = competition with immobilised ligand; value = 100%

Series 3
Species: mouse
Matrix: microsomes or S9
Tested at: 2 µM
Time: 0.5 h
Measurement: remaining compound
Structure (SMILES) = CC(C)(C)OC(=O)C1C(=O)CC(C)(O)C(C(=O)OC(C)(C)C)C1c1cccnc1 (stereo not shown); value = 19.7%
Structure (SMILES) = CC(C)(C)NS(=O)(=O)c1ccc(NC(=O)C2c3ccccc3Oc3ccccc32)cc1; value = 74.4%
Structure (SMILES) = Cn1cc(-c2cccc(CNc3nnc(C(C)(C)C)o3)c2)cn1; value = 7.78%
Structure (SMILES) = O=C(Nc1ccc(F)cc1)Nc1cc2ccc(O)cc2s1; value = 40.9%

Series 4
Target: His6 tag
Method: AlphaScreen counter screen
Tested at: concentration not given
Measurement: inhibition
SMILES = O=c1n(Cc2ccccc2)sc(=S)n1Cc1ccccc1; value = -41.9%
SMILES = CCN(CC)Cc1c(-c2ccncc2)[nH]c2ncccc12; value = 1.1%
SMILES = N#CC(=C1CCCC1)c1nc2ccccc2s1; value = 3.55%
SMILES = Ic1cccc(CSc2nnc(-c3ccncc3)o2)c1; value = -2.3%
SMILES = N#CC(=C1CCCN1)c1nc2ccccc2s1; value = 7.4%

Repeated from above (series 2):
target = Tyrosine-protein kinase ABL1, phosphorylated (ABL1, Homo sapiens, UniProt P00519, F317I); observed = binding; value = 100%
target = MAPK4 (Homo sapiens, UniProt P31152); observed = cell-free assay; method = competition with immobilised ligand; value = 96%
